Assay results pooled from the literature.
Each numbered part is a random draw from the data of one study; scales do not carry over between parts. Several values in a cell are separate wells, animals, samples, runs or records.
Chain of UniProt O15075 (whole entry, looked up): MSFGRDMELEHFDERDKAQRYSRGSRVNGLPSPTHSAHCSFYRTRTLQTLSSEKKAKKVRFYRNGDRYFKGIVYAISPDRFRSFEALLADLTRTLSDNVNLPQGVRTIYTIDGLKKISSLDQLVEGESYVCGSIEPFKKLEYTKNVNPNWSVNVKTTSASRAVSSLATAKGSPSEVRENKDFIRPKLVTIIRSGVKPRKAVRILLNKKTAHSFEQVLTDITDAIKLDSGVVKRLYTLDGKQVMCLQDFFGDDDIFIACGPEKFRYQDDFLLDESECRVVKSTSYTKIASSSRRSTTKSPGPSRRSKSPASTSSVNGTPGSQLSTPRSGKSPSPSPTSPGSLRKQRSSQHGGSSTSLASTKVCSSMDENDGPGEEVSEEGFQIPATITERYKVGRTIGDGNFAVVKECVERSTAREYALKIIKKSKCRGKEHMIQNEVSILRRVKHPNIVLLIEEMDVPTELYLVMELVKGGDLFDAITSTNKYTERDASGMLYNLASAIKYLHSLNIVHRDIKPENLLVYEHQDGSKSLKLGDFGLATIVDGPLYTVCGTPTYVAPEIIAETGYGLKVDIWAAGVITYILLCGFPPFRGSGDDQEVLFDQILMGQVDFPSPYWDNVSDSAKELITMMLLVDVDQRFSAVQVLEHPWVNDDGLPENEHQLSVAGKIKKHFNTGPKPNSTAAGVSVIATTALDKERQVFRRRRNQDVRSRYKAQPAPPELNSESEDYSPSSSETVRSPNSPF
Chain of UniProt P49759 (whole entry, looked up): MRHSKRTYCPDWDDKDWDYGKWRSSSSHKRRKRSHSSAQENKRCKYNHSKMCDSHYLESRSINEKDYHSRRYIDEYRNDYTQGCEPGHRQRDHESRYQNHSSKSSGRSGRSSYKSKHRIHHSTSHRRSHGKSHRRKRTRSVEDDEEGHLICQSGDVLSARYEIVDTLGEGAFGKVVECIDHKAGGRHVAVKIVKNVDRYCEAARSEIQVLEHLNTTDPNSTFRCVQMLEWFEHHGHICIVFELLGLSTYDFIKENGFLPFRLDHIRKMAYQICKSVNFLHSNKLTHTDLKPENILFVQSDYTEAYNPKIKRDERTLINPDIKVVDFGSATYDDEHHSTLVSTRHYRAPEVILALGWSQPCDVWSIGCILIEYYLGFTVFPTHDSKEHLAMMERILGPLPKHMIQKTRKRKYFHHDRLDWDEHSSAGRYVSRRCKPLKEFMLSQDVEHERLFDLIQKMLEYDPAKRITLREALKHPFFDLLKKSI
Chain of UniProt P07948 (whole entry, looked up): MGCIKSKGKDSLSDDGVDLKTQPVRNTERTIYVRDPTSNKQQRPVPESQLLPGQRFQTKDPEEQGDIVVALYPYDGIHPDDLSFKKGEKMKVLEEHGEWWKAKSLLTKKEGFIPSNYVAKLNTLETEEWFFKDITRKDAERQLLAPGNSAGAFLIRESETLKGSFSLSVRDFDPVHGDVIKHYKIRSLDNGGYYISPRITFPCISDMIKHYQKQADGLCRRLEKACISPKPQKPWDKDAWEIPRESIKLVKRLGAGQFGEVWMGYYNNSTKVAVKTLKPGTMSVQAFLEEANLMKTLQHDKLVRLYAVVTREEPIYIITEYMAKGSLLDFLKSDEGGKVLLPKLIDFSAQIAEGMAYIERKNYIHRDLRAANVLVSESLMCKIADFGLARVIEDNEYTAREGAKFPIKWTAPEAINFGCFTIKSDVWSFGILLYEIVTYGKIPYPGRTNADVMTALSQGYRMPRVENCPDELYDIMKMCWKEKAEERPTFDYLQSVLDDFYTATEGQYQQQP
Chain of UniProt P04049 (whole entry, looked up): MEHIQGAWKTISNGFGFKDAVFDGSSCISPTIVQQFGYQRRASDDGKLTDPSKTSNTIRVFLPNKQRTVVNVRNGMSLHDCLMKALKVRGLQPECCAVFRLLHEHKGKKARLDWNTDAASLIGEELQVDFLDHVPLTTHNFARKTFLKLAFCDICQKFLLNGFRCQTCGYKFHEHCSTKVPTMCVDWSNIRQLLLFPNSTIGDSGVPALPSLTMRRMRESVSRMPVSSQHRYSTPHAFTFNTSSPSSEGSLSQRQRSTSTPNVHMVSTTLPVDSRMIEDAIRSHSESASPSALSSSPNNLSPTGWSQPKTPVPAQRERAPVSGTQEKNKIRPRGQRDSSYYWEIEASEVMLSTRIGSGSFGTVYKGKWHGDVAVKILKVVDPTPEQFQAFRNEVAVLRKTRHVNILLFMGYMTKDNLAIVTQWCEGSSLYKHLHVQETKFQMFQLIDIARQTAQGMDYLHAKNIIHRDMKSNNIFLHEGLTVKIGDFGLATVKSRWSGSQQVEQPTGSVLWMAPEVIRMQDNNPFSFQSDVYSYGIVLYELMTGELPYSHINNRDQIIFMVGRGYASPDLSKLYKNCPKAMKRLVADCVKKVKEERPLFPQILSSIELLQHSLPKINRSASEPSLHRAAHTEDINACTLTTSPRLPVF
Chain of UniProt Q8TDX7 (whole entry, looked up): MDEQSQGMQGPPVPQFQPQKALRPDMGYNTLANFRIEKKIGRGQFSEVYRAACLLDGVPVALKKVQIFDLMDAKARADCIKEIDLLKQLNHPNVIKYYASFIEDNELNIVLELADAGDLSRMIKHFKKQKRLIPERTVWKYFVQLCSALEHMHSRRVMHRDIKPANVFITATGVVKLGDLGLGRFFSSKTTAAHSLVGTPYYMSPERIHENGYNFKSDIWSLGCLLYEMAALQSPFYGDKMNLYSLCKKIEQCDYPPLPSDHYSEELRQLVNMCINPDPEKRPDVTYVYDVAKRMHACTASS
Chain of UniProt O14976 (whole entry, looked up): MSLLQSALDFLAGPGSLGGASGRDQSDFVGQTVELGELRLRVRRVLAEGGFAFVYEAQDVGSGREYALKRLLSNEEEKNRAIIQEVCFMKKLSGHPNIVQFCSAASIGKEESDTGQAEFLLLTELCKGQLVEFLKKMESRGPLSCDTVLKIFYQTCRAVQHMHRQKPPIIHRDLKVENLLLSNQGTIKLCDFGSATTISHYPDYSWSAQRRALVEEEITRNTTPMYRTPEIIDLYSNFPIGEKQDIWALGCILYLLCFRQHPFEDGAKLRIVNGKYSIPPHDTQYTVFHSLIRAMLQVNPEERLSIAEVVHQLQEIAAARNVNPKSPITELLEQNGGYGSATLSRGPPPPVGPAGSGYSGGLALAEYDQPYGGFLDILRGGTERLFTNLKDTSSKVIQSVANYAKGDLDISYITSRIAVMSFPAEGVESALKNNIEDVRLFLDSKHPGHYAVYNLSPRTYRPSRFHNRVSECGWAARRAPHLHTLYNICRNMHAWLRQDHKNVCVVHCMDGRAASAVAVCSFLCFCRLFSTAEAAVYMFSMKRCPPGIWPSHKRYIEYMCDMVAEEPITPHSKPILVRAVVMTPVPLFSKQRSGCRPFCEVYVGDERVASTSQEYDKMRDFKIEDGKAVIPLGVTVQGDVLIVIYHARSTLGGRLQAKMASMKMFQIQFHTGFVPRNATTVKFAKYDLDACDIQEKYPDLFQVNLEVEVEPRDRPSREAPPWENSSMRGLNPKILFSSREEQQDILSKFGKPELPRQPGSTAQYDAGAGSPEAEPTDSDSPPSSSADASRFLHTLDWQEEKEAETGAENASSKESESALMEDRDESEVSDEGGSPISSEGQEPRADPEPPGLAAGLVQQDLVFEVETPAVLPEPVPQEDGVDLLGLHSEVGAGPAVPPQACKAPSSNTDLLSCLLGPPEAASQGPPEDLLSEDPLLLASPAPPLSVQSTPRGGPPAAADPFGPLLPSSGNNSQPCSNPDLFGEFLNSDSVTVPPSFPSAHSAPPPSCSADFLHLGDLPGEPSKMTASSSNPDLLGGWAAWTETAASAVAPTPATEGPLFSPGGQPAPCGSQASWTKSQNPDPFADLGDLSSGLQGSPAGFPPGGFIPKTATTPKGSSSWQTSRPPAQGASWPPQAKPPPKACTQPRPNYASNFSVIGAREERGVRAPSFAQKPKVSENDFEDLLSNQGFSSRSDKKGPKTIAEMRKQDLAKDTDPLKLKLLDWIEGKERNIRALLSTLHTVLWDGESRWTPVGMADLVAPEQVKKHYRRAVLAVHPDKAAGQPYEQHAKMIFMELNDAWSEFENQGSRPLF

Set 1
Compound: CO[C@@H](C)c1c(Nc2ccc([C@H](N(C)C(=O)C3CCS(=O)(=O)CC3)C(F)(F)F)cc2)cnc2cc(Cl)nn12
Observed: cell-free assay
Technique: competition with immobilised ligand
Tested at: 1 µM
| target | remaining binding |
| --- | --- |
| DCLK1 (Homo sapiens, UniProt O15075) | 72% |
| GAK (Homo sapiens, UniProt O14976) | 98% |
| NEK7 (Homo sapiens, UniProt Q8TDX7) | 75% |
| DYRK1A (Homo sapiens, UniProt Q13627) | 75% |
| LYN (Homo sapiens, UniProt P07948) | 77% |
| MAP3K14 (Homo sapiens, UniProt Q99558) | 94% |
| STK4 (Homo sapiens, UniProt Q13043) | 100% |
| RAF1 (Homo sapiens, UniProt P04049) | 97% |
| SRC (Homo sapiens, UniProt P12931) | 99% |
| CLK1 (Homo sapiens, UniProt P49759) | 81% |
| EPHB6 (Homo sapiens, UniProt O15197) | 100% |

Set 2
Target: Calcium/calmodulin-dependent protein kinase type 1D (CAMK1D, Homo sapiens, UniProt Q8IU85)
Chain of UniProt Q8IU85 (whole entry, looked up): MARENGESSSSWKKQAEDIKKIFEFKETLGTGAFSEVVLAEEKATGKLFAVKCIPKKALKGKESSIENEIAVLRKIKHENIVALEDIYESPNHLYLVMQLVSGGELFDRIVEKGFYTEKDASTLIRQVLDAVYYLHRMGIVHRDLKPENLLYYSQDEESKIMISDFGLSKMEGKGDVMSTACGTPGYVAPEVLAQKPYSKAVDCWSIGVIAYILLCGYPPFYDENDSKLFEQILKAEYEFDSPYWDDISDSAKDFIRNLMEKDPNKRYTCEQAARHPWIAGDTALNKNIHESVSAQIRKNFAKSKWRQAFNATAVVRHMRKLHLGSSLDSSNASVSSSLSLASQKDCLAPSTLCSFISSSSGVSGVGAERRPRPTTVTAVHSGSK
Observed: enzyme activity
Mode: inhibitor
Tested at: 0.5 µM
Baseline: control
| Compound | remaining activity |
| --- | --- |
| COc1cc2ncnc(Nc3cccc(Cl)c3)c2cc1OC | 96.6% |
| Cc1cn(-c2cc(NC(=O)c3ccc(C)c(Nc4nccc(-c5cccnc5)n4)c3)cc(C(F)(F)F)c2)cn1 | 87.7% |
| N#Cc1c(NC(=O)c2cccc3ccccc23)sc2c1CCCC2 | 120% |
| COc1cc2ncnc(Nc3ccc(O)c(Br)c3)c2cc1OC | 98.6% |
| CCN(CC)CCNC(=O)c1c(C)[nH]c(/C=C2\C(=O)Nc3ccc(Cl)cc32)c1C | 60.2% |
| O=C(NC(NC(=S)Nc1ccc(F)c([N+](=O)[O-])c1)C(Cl)(Cl)Cl)C(c1ccccc1)c1ccccc1 (centres unmarked) | 99% |
| O=C1C(Cl)=C(N2C(=O)CCC2=O)C(=O)c2ccccc21 | 102% |
| Cc1cc2ncc(-c3ccccc3)nc2cc1C | 100% |
| COc1cc2c(cc1OC)-c1[nH]nc(Nc3cccc(F)c3)c1C2 | 89.8% |
| CCOc1nc(NC(=O)Cc2cc(OC)ccc2OC)cc(N)c1C#N | 108% |
| c1ccc(-c2cnc(Nc3ccc(OCCN4CCCC4)cc3)s2)cc1 | 101% |
| Ic1cccc(CSc2nnc(-c3ccncc3)o2)c1 | 101% |
| CN(C)C[C@H]1CCn2c(c(C3=C(c4cn(C)c5ccccc45)C(=O)NC3=O)c3ccccc32)C1 | 101% |
| O=C(Nc1cccc(Nc2nccc(Nc3cccc(C(F)(F)F)c3)n2)c1)C1CC1 | 100% |
| Cn1nc2c3c(cccc31)C(=O)c1ccccc1-2 | 70.3% |
| N#C/C(=C\c1ccc(O)c(O)c1)C(=O)NCc1ccccc1 | 96.4% |
| Nc1cccc(-c2cc3c(Oc4cccc(O)c4)ncnc3[nH]2)c1 | 97.7% |
| Cc1nc2cc3nc(-c4cccs4)cnc3cc2n1C | 107% |
| CCN(CC)C(=O)c1ccc(Nc2nc(OCC3CCCCC3)c3[nH]cnc3n2)cc1 | 101% |
| CN([C@@H](Cc1ccc(OS(=O)(=O)c2cccc3cnccc23)cc1)C(=O)N1CCN(c2ccccc2)CC1)S(=O)(=O)c1cccc2cnccc12 | 101% |

Set 3
Compound: CCOc1ccc(Nc2c3c(nc4ccccc24)CCC3)cc1
| cell line | technique | tested at | time | notes | cytotoxicity |
| --- | --- | --- | --- | --- | --- |
| HepG2 | resazurin | 6.66 µM | 48 h | – | 56% and 51% |
| PMA-differentiated THP-1 macrophages | – | 0.4 µM | 64 h | – | -1% and 1% |
| RAW264.7 | resazurin | 0.0066 µM | 64 h | – | -3% and -2% |
| RAW264.7 | resazurin | 1.66 µM | – | – | -3% and -2% |
| PMA-differentiated THP-1 macrophages | – | 0.2 µM | 64 h | – | 2% and 1% |
| J774.1 | resazurin | 0.066 µM | – | – | -4% and -5% |
| HEK293 | resazurin | 66.66 µM | – | 10% serum | 100% |
| RAW264.7 | resazurin | 3.32 µM | – | – | -5% and -6% |
| PMA-differentiated THP-1 macrophages | – | 0.04 µM | 64 h | – | 4% and 1% |

Set 4
Species: human
Sample: microsomes or S9
Tested at: 2 µM
Time: 0.5 h
| Compound | remaining compound [%] |
| --- | --- |
| O=C(O)c1cc2cc(-c3ccncc3)c3ccccc3c2o1 | 63.1 |
| COC(=O)CC(c1c(O)cc(C)n(CCc2ccc(O)cc2)c1=O)c1cnn2cccnc12 (centres unmarked) | 18.4 |
| CC(=O)c1c(Nc2ccc(C)cc2Cl)[nH]c2c(F)ccc(C)c2c1=O | 0.0642 |
| O=C(CC(c1ccccc1)c1ccccc1)N1CCOCC1 | 16.2 |
| CCc1cccc(CC)c1NC(=O)CN(c1cccc(Cl)c1Cl)S(C)(=O)=O | 1.74 |
| CN1C(=O)C(O)(C2OC(C)(C)CCC2=O)c2ccccc21 (centres unmarked) | 46.3 |
| Oc1ccc(-c2oncc2-c2ccccc2)c(O)c1 | 65 |
| Clc1ccccc1C1(c2ccnc(Cn3cncn3)n2)CCNCC1 | 92 |
| N[C@@H](CC(=O)N1CCCN(Cc2ccccc2)CC1)Cc1cc(F)c(F)cc1F | 4.44 |
| Cc1nn(-c2ccccc2)c2nc3c(cc12)C(=O)CC(c1cccs1)C3 (centres unmarked) | 45.2 |

A few entries again (set 1):
| target | remaining binding |
| --- | --- |
| CLK1 (Homo sapiens, UniProt P49759) | 81% |
| RAF1 (Homo sapiens, UniProt P04049) | 97% |
| GAK (Homo sapiens, UniProt O14976) | 98% |
| NEK7 (Homo sapiens, UniProt Q8TDX7) | 75% |
